Measurements of several laboratories.
Chain of UniProt Q15835 (whole entry, looked up): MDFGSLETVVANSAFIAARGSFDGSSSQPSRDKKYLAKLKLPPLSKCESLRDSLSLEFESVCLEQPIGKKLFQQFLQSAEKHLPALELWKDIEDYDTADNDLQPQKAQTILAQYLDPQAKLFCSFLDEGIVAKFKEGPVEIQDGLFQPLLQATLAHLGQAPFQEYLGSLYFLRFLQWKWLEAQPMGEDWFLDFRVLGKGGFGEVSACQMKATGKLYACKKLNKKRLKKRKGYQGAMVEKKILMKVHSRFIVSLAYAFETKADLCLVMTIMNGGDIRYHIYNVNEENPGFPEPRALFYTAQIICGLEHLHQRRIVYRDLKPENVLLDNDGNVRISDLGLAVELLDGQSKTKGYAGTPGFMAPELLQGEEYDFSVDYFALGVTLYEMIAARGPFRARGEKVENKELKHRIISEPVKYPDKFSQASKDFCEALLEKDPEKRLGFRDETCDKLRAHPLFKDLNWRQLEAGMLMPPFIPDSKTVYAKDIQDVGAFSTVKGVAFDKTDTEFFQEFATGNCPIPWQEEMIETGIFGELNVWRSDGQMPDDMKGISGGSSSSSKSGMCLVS

Structure (SMILES)	tested on	assay	setting	measurement	value
COc1cc2cc(c1Cl)N(C)C(=O)C[C@H](OC(=O)[C@H](C)N(C)C(=O)CCS)[C@]1(C)O[C@H]1[C@H](C)[C@@H]1C[C@@](O)(NC(=O)O1)[C@H](OC)/C=C/C=C(\C)C2	B16	cell growth or viability, SRB	48 h	IC50	32.3 nM
COc1cc(C(=O)c2nc(-c3ccc4[nH]ccc4c3)c[nH]2)cc(OC)c1OC	A-375	cell growth or viability, MTS	72 h	IC50	36.6 nM
CS(=O)(=O)OCCN(CCBr)c1c(C(=O)NCCO)cc([N+](=O)[O-])cc1[N+](=O)[O-]	B-ALL	cell growth or viability	48 h	IC50	26600 nM
Cc1cccc(NC(=O)c2sc3nc(-c4ccccc4)cc(C(F)(F)F)c3c2N)c1C	HepG2	cell growth or viability	72 h	IC50	> 100000 nM
COc1cc(C(=O)c2nc(-c3c[nH]c4ccccc34)c[nH]2)cc(OC)c1OC	A-375	cell growth or viability, MTS	72 h	IC50	31.3 nM
Nc1c(C(=O)N2CCOCC2)sc2ncccc12	HepG2	cell growth or viability	72 h	IC50	> 100000 nM
Cc1sc2c(c1C)C(c1ccc(Cl)cc1)=N[C@@H](CC(=O)OC(C)(C)C)c1nnc(C)n1-2	K562	cell growth or viability, ATP luminescence	–	IC50	1060 nM
Nc1c(C(=O)NCc2ccccc2)sc2ncccc12	HepG2	cell growth or viability	72 h	IC50	> 100000 nM
COc1cc(C(=O)c2nc(-c3cccc4[nH]ccc34)cn2C)cc(OC)c1OC	M14	cell growth or viability, MTS	72 h	IC50	472 nM
N.N.[Cl][Pt][Cl]	KU812	cell growth or viability, ATP luminescence	72 h	IC50	1840 nM
CN(C)C(=O)c1sc2ncccc2c1N	HepG2	cell growth or viability	72 h	IC50	> 100000 nM
O=C1CCP(=[Se])(c2ccccc2)CC1	HCT-116	cell growth or viability, MTT	72 h	IC50	> 100000 nM
COc1cc(C(=O)c2nc(-c3cccc4c3ccn4C)c[nH]2)cc(OC)c1OC	A-375	cell growth or viability, MTS	72 h	IC50	11.9 nM
O=C1CCP(c2ccccc2)CC1	HCT-116	cell growth or viability, MTT	72 h	IC50	> 100000 nM
COc1ccc(-c2ccc3c(N)c(C(=O)N4CCOCC4)sc3n2)cc1OC	HepG2	cell growth or viability	72 h	IC50	> 100000 nM
N.N.[Cl][Pt][Cl]	A549	cell growth or viability, MTT	72 h	IC50	7000 nM
N.N.[Cl][Pt][Cl]	MDA-MB-231	cell growth or viability	48 h, dark	IC50	36600 nM
Nc1c(C(=O)NCc2ccc(F)cc2)sc2ncccc12	HepG2	cell growth or viability	72 h	IC50	> 100000 nM
COc1cc(C(=O)c2nc(-c3ccc4ccccc4c3)c[nH]2)cc(OC)c1OC	A-375	cell growth or viability, MTS	72 h	IC50	308 nM
[2H]c1c([2H])c([C@]2([2H])CCCN2C(=O)C(C)(C)Oc2ccc3cn[nH]c3c2)c([2H])c([2H])c1C([2H])([2H])[2H]	GRK1 (Homo sapiens, UniProt Q15835)	binding, competition with immobilised ligand	1 µM	remaining binding	76%
Nc1c(C(=O)N2CCOCC2)sc2nc(-c3cccnc3)ccc12	HepG2	cell growth or viability	72 h	IC50	> 100000 nM
COc1cc(C(=O)c2nc(-c3cccc4[nH]ccc34)c[nH]2)cc(OC)c1OC	A-375	cell growth or viability, MTS	72 h	IC50	0.6 nM
N.N.[Cl][Pt][Cl]	HCT-116	cell growth or viability, MTT	–	IC50	6540 nM
COc1cc(C(=O)c2nc(-c3cccc4occc34)c[nH]2)cc(OC)c1OC	A-375	cell growth or viability, MTS	72 h	IC50	69.4 nM
CC[C@@]1(O)C(=O)OCc2c1cc1n(c2=O)Cc2cc3ccccc3nc2-1	FR2	cell growth or viability, SRB	48 h	IC50	< 100000 nM
O=C(c1cc2ccc(-c3ccccc3)nc2s1)N1CCCC1	HepG2	cell growth or viability	72 h	IC50	49000 nM
COc1cc(C(=O)c2nc(-c3cccc4ncccc34)c[nH]2)cc(OC)c1OC	M14	cell growth or viability, MTS	72 h	IC50	> 1000 nM

A few entries again:
Structure (SMILES)	tested on	assay	setting	measurement	value
N.N.[Cl][Pt][Cl]	HCT-116	cell growth or viability, MTT	–	IC50	6540 nM
COc1cc(C(=O)c2nc(-c3cccc4occc34)c[nH]2)cc(OC)c1OC	A-375	cell growth or viability, MTS	72 h	IC50	69.4 nM
